# Measured values pooled from the literature.
# Parts stem from different laboratories: compare values within a part only.

# Study 1
# Target: Histone acetyltransferase KAT6A, winged helix 1, GST fusion (KAT6A, Homo sapiens, UniProt Q92794, residues 1-85)
# Method: protein binding microarray
# Molecule type: double-stranded DNA, one strand shown
# Sample: in vitro
# Concentration: not given
# Notes: 8-mer, flanks averaged, mean of 2 arrays, mostly near background
# Baseline: not given
# Direction: higher = stronger binding
# Construct (chain): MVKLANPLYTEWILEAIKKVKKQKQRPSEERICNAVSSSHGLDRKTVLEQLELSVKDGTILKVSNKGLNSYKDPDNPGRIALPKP
Sequence,E-score
GAGTCTAC,0.00083
CAGATCGA,-0.22
ACAGTATA,-0.0449
CGCTTTAA,0.123
AGCCTGGG,-0.187
CAACCGAA,-0.09
ATGCCTAA,-0.194
GGGTACGA,-0.136

# Study 2
# Target: Replicase polyprotein 1ab, 3C-like proteinase (rep, Middle East respiratory syndrome-related coronavirus, UniProt K9N7C7)
# Observed: enzyme activity
# Concentration: 10 µM
Compound,inhibition [%]
O=C(O[C@@H]1Cc2c(O)cc(O)cc2O[C@@H]1c1cc(O)c(O)c(O)c1)c1cc(O)c(O)c(O)c1,10
S=C(S)N1CCCC1,42
CN1CCc2cccc3c2[C@H]1Cc1ccc(O)c(O)c1-3,6
CC(C)c1cc(CNc2nc(Nc3cc(C4CC4)[nH]n3)cc(N3CCN(C)CC3)n2)on1,9
COc1cccc2c1C(=O)c1c(O)c3c(c(O)c1C2=O)C[C@@](O)(/C(CO)=N/NC(=O)CCCCCN1C(=O)C=CC1=O)C[C@@H]3O[C@H]1C[C@H](N)[C@H](O)[C@H](C)O1,1

# Study 3
# Target: Replicase polyprotein 1ab, nsp13 helicase (rep, Severe acute respiratory syndrome coronavirus 2, UniProt P0DTD1)
# Mode: inhibitor
# Concentration: 20 µM
Structure (SMILES),inhibition
CC/C=C(\C(=O)N[C@@H]1C(=O)N2C(C(=O)OCOC(=O)C(C)(C)C)=C(COC(N)=O)CS[C@H]12)c1csc(N)n1,7.16%
CC(C[N+](C)(C)C)OC(N)=O (stereo not drawn),1.61%
C=CC(=O)Nc1cccc(C)c1Nc1ncc2cc(-c3c(Cl)c(OC)cc(OC)c3Cl)ccc2n1,-0.3%
Cc1nc(-c2cn3c(n2)-c2ccc(-c4cnn(C(C)(C)C(N)=O)c4)cc2OCC3)n(C(C)C)n1,3.97%
NC[C@@H]1O[C@H](O[C@H]2[C@@H](O)[C@H](O[C@@H]3[C@@H](O)[C@H](N)C[C@H](N)[C@H]3O[C@H]3O[C@H](CO)[C@@H](O)[C@H](O)[C@H]3N)O[C@@H]2CO)[C@H](N)[C@@H](O)[C@@H]1O,8.46%
CC(C)Cn1cnc2c1c(=O)n(C)c(=O)n2C,-7.64%
CCCCC(=O)O[C@]1(C(=O)CO)CC[C@H]2[C@@H]3CCC4=CC(=O)CC[C@]4(C)[C@H]3[C@@H](O)C[C@@]21C,-2.37%
Cc1ccc(S(=O)(=O)OCC(=O)Nc2ccc(C(=O)O)c(O)c2)cc1,3.11%
CNCCCOc1cc(F)c(-c2c(Cl)nc3ncnn3c2N[C@@H](C)C(F)(F)F)c(F)c1,8.19%
O=C(O)c1cc(=O)c2c(OCC(O)COc3cccc4oc(C(=O)O)cc(=O)c34)cccc2o1,-5.61%
Cc1ccc(CCCO)c(NCc2ccc3nc(NCCCN4CCOCC4)n(Cc4nc(C)ccc4O)c3c2)c1,6.47%
N#Cc1c(N)nc(SCc2csc(-c3ccc(Cl)cc3)n2)c(C#N)c1-c1ccc(OCCO)cc1,0.59%
CCc1cc2c(cc1CC)CC(NC[C@H](O)c1ccc(O)c3[nH]c(=O)ccc13)C2,0.46%
CCC(CC)(CC(=O)Nc1cccc(/C=C/c2nc(C3CCC3)cs2)c1)C(=O)O,3.56%
O=C(NC(O)C(Cl)(Cl)Cl)NC(O)C(Cl)(Cl)Cl (stereo not drawn),-2.1%
C=CC[N@@+]12CC[C@@]34c5ccccc5N5/C=C6/[C@H]7C[C@H]8[C@@]9(CC[N@@+]8(CC=C)C/C7=C/CO)c7ccccc7N(/C=C(/[C@@H](C[C@@H]31)/C(=C\CO)C2)[C@H]54)[C@@H]69,7.58%
CC(=O)OCC(CCn1cnc2cnc(N)nc21)COC(C)=O,1.86%
CS(=O)(=O)N1CCc2c(-c3cnc(N)nc3)nc(N3CCOCC3)nc21,7.6%
COc1cc(OC)nc(O[C@H](C(=O)O)C(OC)(c2ccccc2)c2ccccc2)n1,4.84%
COc1ccc2c3c1O[C@H]1C[C@@H](O)C=C[C@@]31CCN(C)C2,1.82%
COc1ccc(CCNCC(O)COc2cccc(C)c2)cc1OC (stereo not drawn),4.06%

# Study 4
# Target: Interferon regulatory factor 7, full length, phosphomimetic (IRF7, Homo sapiens, UniProt Q92985, residues 1-503, S471D/S472D/S475D/S476D/S477D/S483D/S484D/S487D)
# Method: protein-binding microarray
# Molecule type: double-stranded DNA, one strand shown
# Sample: in vitro
# Concentration: 2200 nM top
# Notes: 60-bp whole probe
# Together with: salmon DNA 0.4 mg/ml
# Baseline: random background probes
# Direction: higher = stronger binding
# Shared flanks, not repeated: GCCTAGCAC … GTCTTGATTCGCTTGACGCTGCTG
# Residues (chain): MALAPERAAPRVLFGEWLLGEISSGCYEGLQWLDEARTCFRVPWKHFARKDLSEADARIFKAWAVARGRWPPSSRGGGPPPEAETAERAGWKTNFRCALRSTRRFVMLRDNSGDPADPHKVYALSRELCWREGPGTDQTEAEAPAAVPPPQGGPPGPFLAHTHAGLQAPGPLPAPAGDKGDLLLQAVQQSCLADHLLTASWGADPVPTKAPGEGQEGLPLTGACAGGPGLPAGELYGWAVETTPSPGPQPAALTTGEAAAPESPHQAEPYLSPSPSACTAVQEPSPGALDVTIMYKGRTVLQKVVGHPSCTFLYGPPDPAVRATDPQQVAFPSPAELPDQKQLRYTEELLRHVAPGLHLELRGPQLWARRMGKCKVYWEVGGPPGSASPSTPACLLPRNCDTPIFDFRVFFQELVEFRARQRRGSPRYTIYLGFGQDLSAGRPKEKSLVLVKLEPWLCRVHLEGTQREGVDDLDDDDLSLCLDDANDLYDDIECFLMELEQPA
Sequence,fitted relative affinity
TTAGATTTCAGTTCCGATTCGTGCTAG,3.26 z-score
TCAAACTTCGGCCTCTAACTGTGCTAG,0.532 z-score
TCAATGCTGGCTTTTATACTGTGCTAG,-0.154 z-score
GACGGTTTCCTTTCCCTCACGTGCTAG,4.51 z-score
TACGGTTTCCTTCTCCTGACGTGCTAG,3.22 z-score
GACGGACTGCTACTGCTGAGGTGCTAG,-0.586 z-score
TTAGATATCAGGTTTCGATTAGTGCTA,3.46 z-score
TCATTTTTTTTCATCATACTGTGCTAG,1.79 z-score

# Some of these lines once more (study 3):
Structure (SMILES),inhibition
CC(=O)OCC(CCn1cnc2cnc(N)nc21)COC(C)=O,1.86%
CS(=O)(=O)N1CCc2c(-c3cnc(N)nc3)nc(N3CCOCC3)nc21,7.6%
COc1cc(OC)nc(O[C@H](C(=O)O)C(OC)(c2ccccc2)c2ccccc2)n1,4.84%
COc1ccc2c3c1O[C@H]1C[C@@H](O)C=C[C@@]31CCN(C)C2,1.82%
COc1ccc(CCNCC(O)COc2cccc(C)c2)cc1OC (stereo not drawn),4.06%
